Measurements gathered from unrelated publications.
“And” joins repeats or separate records; there may be more than shown. ± gives the spread as reported. Non-standard residues stand in square brackets, D forms with d.

| Molecule | target | assay | test system | conditions | how to read | measurement | value |
| --- | --- | --- | --- | --- | --- | --- | --- |
| Cn1sc(Cl)cc1=O | cysteine peptide Ac-RFAACAA-COOH | peptide depletion, DPRA RapidFire-MS/MS |  | 24 h, pH 7.5, room temperature, with: 5.0 µM cysteine peptide |  | IC50 | 14.4 µM |
| Nc1ncnc2c1ncn2[C@@H]1O[C@H](COP(=O)(O)OP(=O)(O)OP(=O)(O)O)[C@@H](O)[C@H]1O | TsaB TsaC TsaD TsaE, Escherichia coli | substrate |  | 23 °C, with: L-threonine 50 mM, tRNALys 10 µM |  | Km | 60 ± 6 µM |
| COC(=O)c1cccc(C(=O)OC)c1 | cysteine peptide Ac-RFAACAA-COOH | DPRA RapidFire-MS/MS |  | 24 h, pH 7.5, with: 5.0 µM cysteine peptide |  | peptide depletion | inactive |
| CCCCCCCC/C=C\CCCCCCCC(=O)OCC(COC(=O)CCCCCCC/C=C\CCCCCCCC)OC(=O)CCCCCCC/C=C\CCCCCCCC | amyloid beta peptide | brain/serum ratio | male CD-1 mouse | intravenous, 7.2 mg, 10 min, with: radioiodinated Aβ co-injected |  | brain uptake of I-Aβ | no effect |
| CC(CC=O)CCCC(C)(C)O (centres unmarked) | cysteine peptide Ac-RFAACAA-COOH | DPRA RapidFire-MS/MS |  | 24 h, pH 7.5, with: 5.0 µM cysteine peptide |  | peptide depletion | inactive |
| Nc1nc2c(ncn2[C@@H]2O[C@@H]3COP(=O)(O)O[C@H]3[C@H]2O)c(=O)[nH]1 | cone cGMP-gated channel (Morone saxatilis) | ion current, agonist, inside-out patch clamp |  | after EDTA/EGTA exposure, -40 mV |  | EC50 | 58.8 µM |
| C=C(C)C(=O)OCC(C)O (centres unmarked) | cysteine peptide Ac-RFAACAA-COOH | DPRA RapidFire-MS/MS |  | 24 h, pH 7.5, with: 5.0 µM cysteine peptide |  | peptide depletion | inactive |
| O=c1c(O[C@@H]2O[C@H](CO)[C@@H](O)[C@H](O)[C@H]2O)c(-c2ccc(O)c(O)c2)oc2cc(O)cc(O)c12 | Mrp2 (rat) | western blot, measured: MRP2 | rats, liver | intravenous, 5 mg/kg, 7 days | baseline: vehicle control | protein level decrease | 26.1% |
| CN(C)CC[C@@H]1NC(=O)c2coc(n2)-c2coc(n2)-c2cccc(c2)-c2cccc(c2)-c2nc(co2)-c2nc(co2)CNC1=O | human telomeric quadruplex d(TTAGGG)4 | UV melting |  | 20 µM, pH 7.5, with: 50 mM K+ | baseline: DNA without compound | melting temperature shift | 8.4 °C |
| COCCOC(=O)C1=C(C)NC(C)=C(C(=O)OC(C)C)C1c1cccc([N+](=O)[O-])c1 (centres unmarked) | T-type calcium channel, guinea pig | calcium current, blocker, whole-cell patch clamp | guinea pig atrial myocytes |  |  | Kd | 0.1 µM |
| O=C1CNC(=O)c2coc(n2)-c2coc(n2)-c2cccc(c2)-c2cccc(c2)-c2nc(co2)-c2nc(co2)CN1 | human telomeric quadruplex d(TTAGGG)4 | UV melting |  | 20 µM, pH 7.5, with: 150 mM K+ | baseline: DNA without compound | melting temperature shift | 4.2 °C |
| CC(C)C[C@H](NC(=O)[C@@H](O)[C@H](N)Cc1ccccc1)C(=O)O | bovine lens protease |  |  | 0.5 mM, 37 °C |  | remaining activity | 88% |
| CC(C)(C)OC(=O)NCC[C@@H]1NC(=O)c2coc(n2)-c2coc(n2)-c2cccc(c2)-c2cccc(c2)-c2nc(co2)-c2nc(co2)CNC1=O | human telomeric quadruplex d(TTAGGG)4 | UV melting |  | 20 µM, pH 7.5, with: 50 mM K+ | baseline: DNA without compound | melting temperature shift | 2.4 °C |
| CC(=O)[C@H]1CC[C@H]2[C@@H]3CCC4=CC(=O)CC[C@]4(C)[C@H]3CC[C@]12C | membrane progesterone receptors α and β | binding, saturation radioligand binding | MDA-MB-468, plasma membranes | 30 min, pH 7.6, 4 °C |  | Kd | 0.00603 µM |
| NCCCCCCCCNS(=O)(=O)c1cccc2c(I)cccc12 | anoctamin-1 rat | Ca2+-activated Cl- current | HEK293 transfected | 50 µM, 10 to 70 min, -70 mV |  | current density | 271 ± 56 pA/pF |
| CC[C@H](C)[C@H](NC(=O)[C@H](CC(=O)O)NC(=O)[C@H](CCCCN)NC(=O)[C@H](CCC(=O)O)NC(=O)[C@H](CCC(=O)O)NC(=O)[C@H](CCCCN)NC(C)=O)C(=O)N[C@@H](CC(N)=O)C(=O)N[C@@H](CC(N)=O)C(=O)N[C@@H](CC(N)=O)C(=O)N[C@H](C(=O)N[C@@H](CCCCN)C(=O)N[C@@H](CCCCN)C(=O)N[C@H](C(N)=O)[C@@H](C)O)C(C)C | iNOS, mouse | SPSB2-elongin BC-dependent ubiquitination, inhibitor, Western blot | Spsb2-/- macrophage lysate | concentration not given, 10 and 40 min, 37 °C |  | polyubiquitination | inhibited |
| C[C@@H](N)C(=O)N[C@H]1CO[C@H](O)[C@H](N)[C@H]1O | pre-miR-21 RNA | differential scanning fluorimetry |  |  | baseline: untreated, positive = stabilisation | maximal ΔTm | 8.41 °C |
| IINFEKL | ERAP1 human wild type | activator | peptide | 100 µM, pH 8.0, 27 °C, with: L-AMC substrate |  | K1/2 of L-AMC | 0.19 mM and ~0.19 mM |
| CC(O)C(=O)O (centres unmarked) | cysteine peptide Ac-RFAACAA-COOH | DPRA RapidFire-MS/MS |  | 24 h, pH 7.5, with: 5.0 µM cysteine peptide |  | peptide depletion | inactive |

| Molecule | target | assay | test system | conditions | how to read | measurement | value |
| --- | --- | --- | --- | --- | --- | --- | --- |
| N[C@@H](CCC(=O)Nc1ccc(-c2ccc(F)cc2)cc1)C(=O)O | glutamate transporters |  | PC-3 | concentration not given, 5 min, 37 °C, with: [3H]-L-glutamate 150 µM | baseline: basal uptake | [3H]-L-glutamate uptake | 110 ± 13% |
| Nc1ncnc2c1ncn2[C@@H]1O[C@H](COP(=O)(O)OP(=O)(O)O)[C@@H](O)[C@H]1O | volume-regulated anion channel |  |  | with: total nucleotide 1 mM |  | Kd | 810 µM |
| CC(C)[C@@H]1NC(=O)c2coc(n2)-c2coc(n2)-c2coc(n2)[C@H](CCN(C)C)NC(=O)c2coc(n2)-c2coc(n2)-c2coc1n2 | human telomeric quadruplex d(TTAGGG)4 | UV melting |  | 20 µM, pH 7.5, with: 150 mM K+ | baseline: DNA without compound | melting temperature shift | 29.1 °C |
| O=C(O)c1cc(SSc2ccc([N+](=O)[O-])c(C(=O)O)c2)ccc1[N+](=O)[O-] | bovine lens protease |  |  | 0.2 mM, 37 °C |  | remaining activity | 1% |
| CN1CCCC2C(c3ccccc3)C(C3=NCCCC3)C(c3ccccc3)CC21 (centres unmarked) | pre-miR-21 RNA | differential scanning fluorimetry |  |  | baseline: untreated, positive = stabilisation | maximal ΔTm | -14 °C |
| CN(C)CCc1cc2cc(c1)CNC(=O)c1coc(n1)-c1coc(n1)-c1cccc(n1)-c1nc(co1)-c1nc(co1)C(=O)NC2 | human telomeric quadruplex d(TTAGGG)4 | UV melting |  | 20 µM, pH 7.5, with: 150 mM K+ | baseline: DNA without compound | melting temperature shift | 28.1 °C |
| O=C(/C=C/c1ccc(-n2ccnc2)cc1)N1CCN(C(=O)c2ccco2)CC1 | ENL YEATS domain | HiBiT CETSA | OCI-AML2 | 80 µM | baseline: SGC-iMLLT 40 µM | thermal stabilization | ≥ 24% |
| CCCCCCCCCCCCOC(=O)c1cc(O)c(O)c(O)c1 | cysteine peptide Ac-RFAACAA-COOH | peptide depletion, DPRA RapidFire-MS/MS |  | 24 h, pH 7.5, room temperature, with: 5.0 µM cysteine peptide |  | IC50 | inactive |
| WHWLPNLRHYAS | VEGFR-3 (human) | binding, ELISA | peptide |  |  | affinity constant | 175 ± 31.1 µg/mL |
| CCCCCCCCc1ccc(CC[C@](N)(CO)COP(=O)(O)O)cc1 | human GIRK channel | ion current, activator, patch clamp | human atrial myocytes |  | baseline: 20 µM carbachol | EC50 | 0.0085 µM |
| IINFEKE | ERAP1 human wild type | activator | peptide | 100 µM, pH 8.0, 27 °C, with: L-AMC substrate |  | Vmax of L-AMC hydrolysis | 169 ± 6 nmol/min/µg |
| CC(C)=CCC/C(C)=C/CC/C(C)=C/CSc1ccccc1C(=O)O | mTOR | inhibitor, Western blot, measured: phospho-p70S6K | cancer cells |  |  | effective concentration | 25 µM |
| CC(C)[C@@H]1NC(=O)c2coc(n2)-c2coc(n2)-c2coc(n2)C/C=C/c2coc(n2)-c2coc(n2)-c2coc1n2 | human telomeric quadruplex d(TTAGGG)4 | UV melting |  | 20 µM, pH 7.5, with: 150 mM K+ | baseline: DNA without compound | melting temperature shift | 30.1 °C |
| H-H[dW][dK]W[dF]K-NH2 (D-Trp, D-Lys, D-Phe, C-amide) | CXCR4 (human) | calcium mobilization, antagonist, Fura-2 fluorescence | primary human T cells | concentration not given, 20 min, with: CXCL12 10 nM |  | inhibition | 20 to 60% |
| O=c1[nH]sc2ccccc12 | cysteine peptide Ac-RFAACAA-COOH | DPRA RapidFire-MS/MS |  | 24 h, pH 7.5, with: 5.0 µM cysteine peptide |  | maximal peptide depletion | -110% |
| c1cnc2c(c1)ccc1cccnc12 | bovine lens protease | enzyme activity, inhibitor |  | 100 µM, 30 min preincubation, 37 °C |  | remaining activity | 59% |
| CC(=O)N[C@@H](CC(N)=O)C(=O)NCC(=O)N[C@@H](CCCCN)C(=O)N[C@@H](C)C(N)=O | Asn-Gly peptide isomerisation to succinimide | 1H NMR time course |  | pH 7.4, 46 °C |  | rate constant k1 | 0.074 h⁻¹ |
| OCC(O)CO | cysteine peptide Ac-RFAACAA-COOH | DPRA RapidFire-MS/MS |  | 24 h, pH 7.5, with: 5.0 µM cysteine peptide |  | peptide depletion | inactive |
| AAPSPLFVPGPLPQL | GPR15 Coturnix japonica | intracellular calcium, agonist, Fluo-4 fluorescence | peptide, CHO transfected with GPR15 |  |  | concentration for maximal response | 10 nM |

A few entries again:
| Molecule | target | assay | test system | conditions | how to read | measurement | value |
| --- | --- | --- | --- | --- | --- | --- | --- |
| COCCOC(=O)C1=C(C)NC(C)=C(C(=O)OC(C)C)C1c1cccc([N+](=O)[O-])c1 (centres unmarked) | T-type calcium channel, guinea pig | calcium current, blocker, whole-cell patch clamp | guinea pig atrial myocytes |  |  | Kd | 0.1 µM |
| O=C1CNC(=O)c2coc(n2)-c2coc(n2)-c2cccc(c2)-c2cccc(c2)-c2nc(co2)-c2nc(co2)CN1 | human telomeric quadruplex d(TTAGGG)4 | UV melting |  | 20 µM, pH 7.5, with: 150 mM K+ | baseline: DNA without compound | melting temperature shift | 4.2 °C |
| CC(C)C[C@H](NC(=O)[C@@H](O)[C@H](N)Cc1ccccc1)C(=O)O | bovine lens protease |  |  | 0.5 mM, 37 °C |  | remaining activity | 88% |
| CC(C)(C)OC(=O)NCC[C@@H]1NC(=O)c2coc(n2)-c2coc(n2)-c2cccc(c2)-c2cccc(c2)-c2nc(co2)-c2nc(co2)CNC1=O | human telomeric quadruplex d(TTAGGG)4 | UV melting |  | 20 µM, pH 7.5, with: 50 mM K+ | baseline: DNA without compound | melting temperature shift | 2.4 °C |
| CC(=O)[C@H]1CC[C@H]2[C@@H]3CCC4=CC(=O)CC[C@]4(C)[C@H]3CC[C@]12C | membrane progesterone receptors α and β | binding, saturation radioligand binding | MDA-MB-468, plasma membranes | 30 min, pH 7.6, 4 °C |  | Kd | 0.00603 µM |
| NCCCCCCCCNS(=O)(=O)c1cccc2c(I)cccc12 | anoctamin-1 rat | Ca2+-activated Cl- current | HEK293 transfected | 50 µM, 10 to 70 min, -70 mV |  | current density | 271 ± 56 pA/pF |
